Assay results gathered from unrelated publications.
Each line is one published result; not all experiments were run side by side. pKi: −log10 of the molar value.
B1: RANBP2 2631-2695 (Homo sapiens, UniProt P49792); chain DVLIVYELTPTAEQKALATKLKLPPTFFCYKNRPDYVSEEEEDDEDFETAVKKLNGKLYLDGSEK
B2: MIF4GD K10A (Homo sapiens, UniProt A9UHW6); sequence looked up; chain MGEPSREEYAIQSFDAETQQLLKTALKDPGAVDLEKVANVIVDHSLQDCVFSKEAGRMCYAIIQAESKQAGQSVFRRGLLNRLQQEYQAREQLRARSLQGWVCYVTFICNIFDYLRVNNMPMMALVNPVYDCLFRLAQPDSLSKEEEVDCLVLQLHRVGEQLEKMNGQRMDELFVLIRDGFLLPTGLSSLAQLLLLEIIEFRAAGWKTTPAAHKYYYSEVSD
B3: UGT1A9 (Homo sapiens, UniProt O60656); chain GKLLVVPMDGSHWFTMRSVVEKLILRGHEVVVVMPEVSWQLGRSLNCTVKTYSTSYTLEDLDREFKAFAHAQWKAQVRSIYSLLMGSYNDIFDLFFSNCRSLFKDKKLVEYLKESSFDAVFLDPFDNCGLIVAKYFSLPSVVFARGILCHYLEEGAQCPAPLSYVPRILLGFSDAMTFKERVRNHIMHLEEHLLCHRFFKNALEIASEILQTPVTEYDLYSHTSIWLLRTDFVLDYPKPVMPNMIFIGGINCHQGKPLPMEFEAYINASGEHGIVVFSLGSMVSEIPEKKAMAIADALGKIPQTVLWRYTGTRPSNLANNTILVKWLPQNDLLGHPMTRAFITHAGSHGVYESICNGVPMVMMPLFGDQMDNAKRMETKGAGVTLNVLEMTSEDLENALKAVINDKSYKENIMRLSSLHKDRPVEPLDLAVFWVEFVMRHKGAPHLRPAAHDLTWYQYHSLDVIGFLLAVVLTVAFITFKCCAYGYRKCLGKKGRVKKAHKSKTH
B4: Il1a 115-270 (Mus musculus, UniProt P01582); chain SAPYTYQSDLRYKLMKLVRQKFVMNDSLNQTIYQDVDKHYLSTTWLNDLQQEVKFDMYAYSSGGDDSKYPVTLKISDSQLFVSAQGEDQPVLLKELPETPKLITGSETDLIFFWKSINSKNYFTSAAYPELFIATKEQSRVHLARGLPSMTDFQIS
UniProt Q14493, sequence (whole entry, looked up): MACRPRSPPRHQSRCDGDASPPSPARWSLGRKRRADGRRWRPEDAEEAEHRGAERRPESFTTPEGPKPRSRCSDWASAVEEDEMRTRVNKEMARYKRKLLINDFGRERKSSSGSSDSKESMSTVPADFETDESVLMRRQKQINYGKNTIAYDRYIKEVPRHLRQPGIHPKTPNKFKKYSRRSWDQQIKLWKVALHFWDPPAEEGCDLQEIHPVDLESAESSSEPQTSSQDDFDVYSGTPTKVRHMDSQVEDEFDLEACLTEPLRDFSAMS
UniProt Q9Y7Z8, sequence (whole entry, looked up): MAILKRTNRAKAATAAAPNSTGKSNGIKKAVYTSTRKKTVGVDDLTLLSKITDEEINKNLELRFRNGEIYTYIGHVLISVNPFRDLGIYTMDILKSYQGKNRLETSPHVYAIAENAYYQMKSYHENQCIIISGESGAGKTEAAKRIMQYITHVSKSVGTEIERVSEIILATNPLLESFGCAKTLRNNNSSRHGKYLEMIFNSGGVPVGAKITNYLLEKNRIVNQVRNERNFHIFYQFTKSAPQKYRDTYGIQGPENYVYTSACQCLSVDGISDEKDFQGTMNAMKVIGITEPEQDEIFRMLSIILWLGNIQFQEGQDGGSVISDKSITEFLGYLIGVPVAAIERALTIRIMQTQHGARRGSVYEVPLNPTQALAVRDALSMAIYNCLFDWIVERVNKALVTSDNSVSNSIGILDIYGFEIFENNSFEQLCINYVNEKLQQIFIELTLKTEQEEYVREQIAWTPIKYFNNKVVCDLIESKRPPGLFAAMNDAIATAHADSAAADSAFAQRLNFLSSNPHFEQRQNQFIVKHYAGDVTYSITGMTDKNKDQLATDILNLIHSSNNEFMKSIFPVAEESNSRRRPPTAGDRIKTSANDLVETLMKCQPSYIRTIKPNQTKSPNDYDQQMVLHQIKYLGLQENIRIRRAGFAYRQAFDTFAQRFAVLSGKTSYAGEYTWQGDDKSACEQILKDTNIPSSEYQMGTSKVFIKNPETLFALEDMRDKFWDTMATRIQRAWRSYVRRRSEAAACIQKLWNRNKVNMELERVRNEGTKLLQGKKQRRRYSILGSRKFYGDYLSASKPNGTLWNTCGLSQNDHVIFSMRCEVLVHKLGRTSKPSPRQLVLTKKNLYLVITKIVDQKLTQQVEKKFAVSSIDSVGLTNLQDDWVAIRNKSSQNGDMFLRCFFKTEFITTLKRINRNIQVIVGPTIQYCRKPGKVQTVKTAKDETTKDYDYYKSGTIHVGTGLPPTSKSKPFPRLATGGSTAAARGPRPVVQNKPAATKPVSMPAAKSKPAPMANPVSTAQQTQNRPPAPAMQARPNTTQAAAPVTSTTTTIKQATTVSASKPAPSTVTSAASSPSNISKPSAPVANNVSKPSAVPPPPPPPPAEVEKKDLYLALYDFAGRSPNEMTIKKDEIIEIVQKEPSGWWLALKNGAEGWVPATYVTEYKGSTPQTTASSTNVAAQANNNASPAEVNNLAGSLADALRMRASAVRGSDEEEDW
UniProt P14780, sequence (whole entry, looked up): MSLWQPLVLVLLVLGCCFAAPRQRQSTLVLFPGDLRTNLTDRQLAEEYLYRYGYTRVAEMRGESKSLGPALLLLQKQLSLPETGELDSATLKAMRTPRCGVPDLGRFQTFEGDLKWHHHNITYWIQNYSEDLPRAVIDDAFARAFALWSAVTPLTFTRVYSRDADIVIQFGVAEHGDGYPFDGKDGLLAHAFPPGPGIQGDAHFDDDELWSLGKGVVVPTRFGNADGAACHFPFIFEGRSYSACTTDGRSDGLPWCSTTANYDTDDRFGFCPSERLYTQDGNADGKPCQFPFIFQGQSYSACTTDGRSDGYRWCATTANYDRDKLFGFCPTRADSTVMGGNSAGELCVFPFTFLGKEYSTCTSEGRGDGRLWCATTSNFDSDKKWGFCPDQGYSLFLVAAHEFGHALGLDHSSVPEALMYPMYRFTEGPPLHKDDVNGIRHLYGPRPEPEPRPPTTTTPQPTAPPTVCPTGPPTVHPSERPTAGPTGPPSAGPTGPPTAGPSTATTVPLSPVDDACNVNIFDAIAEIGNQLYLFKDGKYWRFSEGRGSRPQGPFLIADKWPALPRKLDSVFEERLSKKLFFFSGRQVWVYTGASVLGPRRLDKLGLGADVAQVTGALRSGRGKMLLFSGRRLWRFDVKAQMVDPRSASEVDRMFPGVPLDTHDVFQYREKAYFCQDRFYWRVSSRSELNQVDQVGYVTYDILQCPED
UniProt P32776, sequence (whole entry, looked up): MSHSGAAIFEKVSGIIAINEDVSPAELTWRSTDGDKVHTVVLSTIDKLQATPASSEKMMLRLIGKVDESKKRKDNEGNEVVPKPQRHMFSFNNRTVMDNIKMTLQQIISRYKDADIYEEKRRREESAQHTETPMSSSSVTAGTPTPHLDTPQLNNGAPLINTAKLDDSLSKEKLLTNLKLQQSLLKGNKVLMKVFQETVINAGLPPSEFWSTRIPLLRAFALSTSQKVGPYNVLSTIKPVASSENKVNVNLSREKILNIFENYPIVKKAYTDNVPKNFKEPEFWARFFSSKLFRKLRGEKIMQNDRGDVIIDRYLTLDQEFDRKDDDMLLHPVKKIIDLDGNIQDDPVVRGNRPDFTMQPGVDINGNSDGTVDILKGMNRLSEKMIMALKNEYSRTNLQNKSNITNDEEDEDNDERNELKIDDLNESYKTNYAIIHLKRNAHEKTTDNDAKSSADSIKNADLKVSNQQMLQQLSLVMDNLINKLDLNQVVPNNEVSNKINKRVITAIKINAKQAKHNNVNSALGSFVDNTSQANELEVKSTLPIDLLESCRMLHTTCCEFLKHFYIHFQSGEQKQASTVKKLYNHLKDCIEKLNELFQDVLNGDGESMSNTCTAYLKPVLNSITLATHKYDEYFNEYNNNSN
UniProt P70323, sequence (whole entry, looked up): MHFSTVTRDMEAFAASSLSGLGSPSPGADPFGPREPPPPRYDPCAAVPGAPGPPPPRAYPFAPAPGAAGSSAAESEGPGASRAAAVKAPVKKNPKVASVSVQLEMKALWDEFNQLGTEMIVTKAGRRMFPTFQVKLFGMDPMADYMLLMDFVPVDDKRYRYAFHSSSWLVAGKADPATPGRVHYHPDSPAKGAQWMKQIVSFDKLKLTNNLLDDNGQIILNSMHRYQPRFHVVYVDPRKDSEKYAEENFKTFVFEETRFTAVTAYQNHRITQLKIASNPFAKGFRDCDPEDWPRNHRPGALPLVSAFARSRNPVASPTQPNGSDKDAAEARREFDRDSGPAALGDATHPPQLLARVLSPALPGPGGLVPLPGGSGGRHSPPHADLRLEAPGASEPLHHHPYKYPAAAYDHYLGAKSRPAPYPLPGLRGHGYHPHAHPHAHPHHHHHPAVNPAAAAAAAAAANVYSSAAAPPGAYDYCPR
UniProt P04412, sequence (whole entry, looked up): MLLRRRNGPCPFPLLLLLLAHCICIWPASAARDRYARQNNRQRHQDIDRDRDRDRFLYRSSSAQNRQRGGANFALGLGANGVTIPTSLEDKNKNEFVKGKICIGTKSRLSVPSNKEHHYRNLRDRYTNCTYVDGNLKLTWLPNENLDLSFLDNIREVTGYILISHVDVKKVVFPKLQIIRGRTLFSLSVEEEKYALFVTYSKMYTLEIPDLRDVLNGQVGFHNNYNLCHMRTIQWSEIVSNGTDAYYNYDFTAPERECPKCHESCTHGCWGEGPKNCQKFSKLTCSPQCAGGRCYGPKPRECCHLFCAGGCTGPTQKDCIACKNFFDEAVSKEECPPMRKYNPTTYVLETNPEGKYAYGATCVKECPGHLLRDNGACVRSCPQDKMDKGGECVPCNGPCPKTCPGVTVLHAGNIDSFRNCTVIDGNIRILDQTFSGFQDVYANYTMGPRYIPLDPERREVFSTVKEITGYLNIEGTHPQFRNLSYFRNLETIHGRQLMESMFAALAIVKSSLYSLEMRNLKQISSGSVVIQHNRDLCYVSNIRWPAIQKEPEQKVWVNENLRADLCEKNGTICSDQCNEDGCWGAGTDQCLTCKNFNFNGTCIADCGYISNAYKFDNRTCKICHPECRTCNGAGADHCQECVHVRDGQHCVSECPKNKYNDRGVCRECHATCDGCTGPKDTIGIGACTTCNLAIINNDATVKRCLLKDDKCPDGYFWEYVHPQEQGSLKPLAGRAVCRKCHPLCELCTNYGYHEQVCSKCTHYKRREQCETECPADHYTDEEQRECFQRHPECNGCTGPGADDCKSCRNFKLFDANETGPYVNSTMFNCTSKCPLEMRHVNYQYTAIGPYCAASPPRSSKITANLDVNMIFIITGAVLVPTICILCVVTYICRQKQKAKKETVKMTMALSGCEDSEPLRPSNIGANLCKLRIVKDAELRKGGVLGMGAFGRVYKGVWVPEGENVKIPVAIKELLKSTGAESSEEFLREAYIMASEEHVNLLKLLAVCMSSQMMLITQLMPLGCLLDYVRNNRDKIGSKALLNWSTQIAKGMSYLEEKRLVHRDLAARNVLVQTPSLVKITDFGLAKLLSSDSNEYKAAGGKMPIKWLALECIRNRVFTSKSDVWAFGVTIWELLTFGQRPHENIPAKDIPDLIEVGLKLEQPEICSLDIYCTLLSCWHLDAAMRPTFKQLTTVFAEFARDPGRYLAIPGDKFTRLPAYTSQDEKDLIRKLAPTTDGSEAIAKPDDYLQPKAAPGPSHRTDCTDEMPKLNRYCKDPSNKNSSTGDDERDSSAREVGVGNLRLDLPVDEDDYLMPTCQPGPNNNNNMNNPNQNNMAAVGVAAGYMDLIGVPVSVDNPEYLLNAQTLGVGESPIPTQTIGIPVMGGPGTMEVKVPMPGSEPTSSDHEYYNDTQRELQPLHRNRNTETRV
UniProt Q9P6R1, sequence (whole entry, looked up): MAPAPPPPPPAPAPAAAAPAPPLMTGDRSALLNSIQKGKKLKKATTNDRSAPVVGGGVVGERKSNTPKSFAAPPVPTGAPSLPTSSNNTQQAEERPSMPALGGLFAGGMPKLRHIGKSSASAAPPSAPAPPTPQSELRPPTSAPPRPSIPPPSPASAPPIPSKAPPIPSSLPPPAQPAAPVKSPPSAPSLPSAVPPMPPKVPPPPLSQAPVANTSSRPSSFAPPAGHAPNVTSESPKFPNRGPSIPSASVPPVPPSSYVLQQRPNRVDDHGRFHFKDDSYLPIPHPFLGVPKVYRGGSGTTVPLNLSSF

SERPINC1 R45E/R46E/K114E/R129E (Homo sapiens)
k2 (coagulation factor Xa (UniProt P00742); steady-state kinetics; room temperature, no heparin): 3600 M⁻¹ s⁻¹

Spitz EGF domain, Alexa Fluor 488 label (Drosophila melanogaster)
Kd of lower-affinity sites (Egfr extracellular region 31-868 (Drosophila melanogaster, UniProt P04412); fluorescent ligand binding assay; two independent site classes, added: biotinylated receptor): 1.3 µM

vrp1 (Schizosaccharomyces pombe, UniProt Q9P6R1)
barbed end formation (myo1 965-1217 (Schizosaccharomyces pombe, UniProt Q9Y7Z8); pyrene-actin polymerization, activator; 500 nM; baseline: no verprolin, higher = more barbed ends): 5 fold

CAND1, FlAsH label (UniProt Q86VP6)
dissociation half-life (CUL2/RBX1, AMCA label on C-terminal tag (Homo sapiens); FRET or BRET; 100 nM, no neddylation, added: VBC 200 nM): 20 min

Tbx1 (Mus musculus, UniProt P70323)
reporter activation (PITX2 1-271 (Homo sapiens, UniProt Q99697-3); p21 promoter luciferase; LS-8; added: PITX2A; higher = more activation): 4 fold activation

AAEDWCKKGDT
inhibition (peptide, human polyclonal IgM RF WEAK; concentration not given, 5 µg/mL mAb II-481 coated, added: RF at 50% max binding concentration): 0%

B1 (RANBP2 2631-2695)
protease protection (RANGAP1/SUMO1/UBE2I RanGAP1 419-578 (Homo sapiens); SENP1 deconjugation protection; baseline: RanGAP1-SUMO2 protection, higher = more protection): 47 fold

B2 (MIF4GD K10A)
koff (SLBP, phosphorylated, multiple sites (Homo sapiens, UniProt Q14493); SPR; pH 7.4, 25 °C, NaCl 150 mM): 0.00117 s⁻¹

TIMP2 N-terminal domain S4P/V6G/I35V/S68N/V71I/T99N
pKi (MMP9 catalytic domain, no fibronectin 107-215 (Homo sapiens, UniProt P14780); fluorogenic substrate cleavage, inhibitor, enzyme inhibition assay; apparent): 9.30

PGYPNGLLSGDEDFSSIADMDASALLSQISS (RELA 521-551 L523Y/F542A (Homo sapiens, UniProt Q04206); sequence looked up)
affinity decrease (TFB1 1-115 (Saccharomyces cerevisiae, UniProt P32776); ITC; peptide; 25 °C; baseline: wild-type p65TA1, higher = weaker binding): > 100 fold

B3 (UGT1A9)
Vmax/Km (COc1c(C)c2c(c(O)c1C/C=C(\C)CCC(=O)O)C(=O)OC2; steady-state kinetics; pH 7.4, 37 °C): 91 µL/min/mg

YFCHQYL
inhibition (peptide, human polyclonal IgM RF WEAK; concentration not given, 5 µg/mL mAb II-481 coated, added: RF at 50% max binding concentration): 0%

B4 (Il1a 115-270)
proliferation (Il1r1 (Mus musculus, UniProt P13504); MTS assay; BECs; 10-50 ng/mL, 24 h, added: IL-1RA; baseline: vehicle control): 113%
